{"data": "Experimental data collected from several papers", "embR": "Transcriptional regulatory protein EmbR (embR, Mycobacterium tuberculosis, UniProt P9WGJ9)", "note": "Lines come from different studies, so protocols differ. ± gives the spread as reported.", "sequence of UniProt P21554 (whole entry, unmodified, looked up)": "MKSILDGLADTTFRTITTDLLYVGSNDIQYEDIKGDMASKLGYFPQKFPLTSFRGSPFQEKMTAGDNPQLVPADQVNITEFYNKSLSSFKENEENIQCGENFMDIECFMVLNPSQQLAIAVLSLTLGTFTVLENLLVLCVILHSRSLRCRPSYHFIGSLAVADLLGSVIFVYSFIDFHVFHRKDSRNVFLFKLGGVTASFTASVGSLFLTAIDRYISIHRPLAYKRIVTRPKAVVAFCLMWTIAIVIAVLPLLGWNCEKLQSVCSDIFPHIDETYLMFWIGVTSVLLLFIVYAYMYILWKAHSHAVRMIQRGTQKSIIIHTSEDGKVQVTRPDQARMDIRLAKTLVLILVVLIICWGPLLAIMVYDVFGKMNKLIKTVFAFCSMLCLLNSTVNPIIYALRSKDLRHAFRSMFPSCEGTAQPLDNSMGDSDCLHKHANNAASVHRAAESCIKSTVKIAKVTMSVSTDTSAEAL", "sequence of UniProt P42336 (whole entry, unmodified, looked up)": "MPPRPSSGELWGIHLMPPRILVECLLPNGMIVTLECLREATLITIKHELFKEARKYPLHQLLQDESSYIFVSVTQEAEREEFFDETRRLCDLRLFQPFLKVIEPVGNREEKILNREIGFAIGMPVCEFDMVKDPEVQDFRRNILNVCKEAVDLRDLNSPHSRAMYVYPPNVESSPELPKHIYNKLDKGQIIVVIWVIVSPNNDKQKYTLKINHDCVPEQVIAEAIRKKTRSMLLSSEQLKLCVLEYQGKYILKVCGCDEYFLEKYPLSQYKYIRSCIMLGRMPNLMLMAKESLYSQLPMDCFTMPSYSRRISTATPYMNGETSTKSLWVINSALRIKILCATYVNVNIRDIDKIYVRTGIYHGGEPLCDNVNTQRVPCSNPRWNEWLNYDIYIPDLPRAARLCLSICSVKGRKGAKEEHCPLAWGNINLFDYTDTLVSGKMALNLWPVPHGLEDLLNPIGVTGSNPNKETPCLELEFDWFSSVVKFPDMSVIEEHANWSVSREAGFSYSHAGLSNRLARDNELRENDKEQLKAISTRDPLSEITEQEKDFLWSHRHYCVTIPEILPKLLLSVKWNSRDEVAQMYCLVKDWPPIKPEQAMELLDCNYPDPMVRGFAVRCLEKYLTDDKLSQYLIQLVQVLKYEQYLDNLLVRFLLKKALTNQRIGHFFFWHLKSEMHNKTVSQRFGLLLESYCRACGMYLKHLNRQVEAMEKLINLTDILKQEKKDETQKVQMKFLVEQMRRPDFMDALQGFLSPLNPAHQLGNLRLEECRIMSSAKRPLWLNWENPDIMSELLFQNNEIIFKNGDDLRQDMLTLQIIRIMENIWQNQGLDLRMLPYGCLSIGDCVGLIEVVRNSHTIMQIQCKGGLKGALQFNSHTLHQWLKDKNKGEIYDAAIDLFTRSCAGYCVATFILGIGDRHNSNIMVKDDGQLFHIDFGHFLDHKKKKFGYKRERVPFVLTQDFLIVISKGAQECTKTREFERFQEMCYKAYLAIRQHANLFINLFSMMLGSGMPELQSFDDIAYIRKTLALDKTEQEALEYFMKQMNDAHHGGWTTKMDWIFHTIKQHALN", "sequence of UniProt P9WGJ9 (whole entry, looked up)": "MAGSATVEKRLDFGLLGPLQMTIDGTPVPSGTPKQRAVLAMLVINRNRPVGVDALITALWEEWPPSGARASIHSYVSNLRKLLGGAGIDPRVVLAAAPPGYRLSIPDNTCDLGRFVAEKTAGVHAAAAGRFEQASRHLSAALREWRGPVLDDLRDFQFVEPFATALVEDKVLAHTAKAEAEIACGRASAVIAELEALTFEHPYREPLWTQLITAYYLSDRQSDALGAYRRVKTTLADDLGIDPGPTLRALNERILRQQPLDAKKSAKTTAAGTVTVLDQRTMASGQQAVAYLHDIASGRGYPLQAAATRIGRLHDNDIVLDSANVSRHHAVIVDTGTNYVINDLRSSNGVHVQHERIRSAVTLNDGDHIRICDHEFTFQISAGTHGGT", "sequence of UniProt P34975 (whole entry, looked up)": "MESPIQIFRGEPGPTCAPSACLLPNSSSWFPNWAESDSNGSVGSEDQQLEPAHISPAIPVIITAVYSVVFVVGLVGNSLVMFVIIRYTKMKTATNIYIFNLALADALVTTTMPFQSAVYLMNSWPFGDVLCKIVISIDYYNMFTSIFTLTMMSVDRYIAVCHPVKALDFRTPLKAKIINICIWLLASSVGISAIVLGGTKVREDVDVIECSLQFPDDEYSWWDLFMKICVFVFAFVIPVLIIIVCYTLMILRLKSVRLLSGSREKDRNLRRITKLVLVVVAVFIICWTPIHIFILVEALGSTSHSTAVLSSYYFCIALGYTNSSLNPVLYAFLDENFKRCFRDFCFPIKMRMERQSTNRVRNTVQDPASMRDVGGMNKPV", "sequence of UniProt Q16832 (whole entry, looked up)": "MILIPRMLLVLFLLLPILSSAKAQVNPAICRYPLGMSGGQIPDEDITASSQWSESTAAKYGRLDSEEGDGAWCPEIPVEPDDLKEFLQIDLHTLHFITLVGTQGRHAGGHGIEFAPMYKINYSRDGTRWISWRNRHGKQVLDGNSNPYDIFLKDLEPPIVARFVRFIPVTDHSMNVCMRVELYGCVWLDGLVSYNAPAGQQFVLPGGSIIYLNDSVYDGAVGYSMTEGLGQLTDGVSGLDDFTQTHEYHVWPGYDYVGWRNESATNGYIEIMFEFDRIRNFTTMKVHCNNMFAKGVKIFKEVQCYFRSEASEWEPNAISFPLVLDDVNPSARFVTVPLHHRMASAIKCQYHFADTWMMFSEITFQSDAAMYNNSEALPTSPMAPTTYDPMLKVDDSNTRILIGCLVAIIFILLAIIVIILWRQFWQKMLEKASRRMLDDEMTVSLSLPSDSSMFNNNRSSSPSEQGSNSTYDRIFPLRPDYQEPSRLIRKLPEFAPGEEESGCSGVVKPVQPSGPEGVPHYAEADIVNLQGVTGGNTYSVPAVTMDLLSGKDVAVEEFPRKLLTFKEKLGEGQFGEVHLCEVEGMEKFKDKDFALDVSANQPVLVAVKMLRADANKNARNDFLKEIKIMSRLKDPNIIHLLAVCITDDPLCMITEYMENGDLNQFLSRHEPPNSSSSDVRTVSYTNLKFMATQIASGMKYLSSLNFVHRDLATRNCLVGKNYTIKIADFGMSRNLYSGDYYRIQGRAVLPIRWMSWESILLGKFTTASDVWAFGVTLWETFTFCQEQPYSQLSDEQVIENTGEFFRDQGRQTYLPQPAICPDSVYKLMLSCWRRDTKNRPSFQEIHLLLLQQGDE", "sequence of UniProt P25123 (whole entry, looked up)": "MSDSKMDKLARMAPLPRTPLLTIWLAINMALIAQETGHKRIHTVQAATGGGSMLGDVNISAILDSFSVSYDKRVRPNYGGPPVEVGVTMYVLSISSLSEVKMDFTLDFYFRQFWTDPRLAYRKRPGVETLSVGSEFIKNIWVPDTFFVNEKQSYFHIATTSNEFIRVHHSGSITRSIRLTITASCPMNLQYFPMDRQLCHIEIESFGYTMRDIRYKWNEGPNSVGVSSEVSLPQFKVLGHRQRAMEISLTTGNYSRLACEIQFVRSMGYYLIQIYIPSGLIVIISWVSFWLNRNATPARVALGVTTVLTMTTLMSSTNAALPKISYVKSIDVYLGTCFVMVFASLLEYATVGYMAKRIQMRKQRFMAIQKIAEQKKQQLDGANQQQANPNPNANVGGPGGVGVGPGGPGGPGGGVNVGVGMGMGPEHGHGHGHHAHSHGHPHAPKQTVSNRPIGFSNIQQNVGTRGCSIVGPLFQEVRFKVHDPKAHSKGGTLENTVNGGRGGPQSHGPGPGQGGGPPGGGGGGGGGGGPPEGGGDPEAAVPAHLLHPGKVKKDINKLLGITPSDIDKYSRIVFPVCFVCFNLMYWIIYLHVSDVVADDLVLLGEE", "sequence of UniProt Q01959 (whole entry, looked up)": "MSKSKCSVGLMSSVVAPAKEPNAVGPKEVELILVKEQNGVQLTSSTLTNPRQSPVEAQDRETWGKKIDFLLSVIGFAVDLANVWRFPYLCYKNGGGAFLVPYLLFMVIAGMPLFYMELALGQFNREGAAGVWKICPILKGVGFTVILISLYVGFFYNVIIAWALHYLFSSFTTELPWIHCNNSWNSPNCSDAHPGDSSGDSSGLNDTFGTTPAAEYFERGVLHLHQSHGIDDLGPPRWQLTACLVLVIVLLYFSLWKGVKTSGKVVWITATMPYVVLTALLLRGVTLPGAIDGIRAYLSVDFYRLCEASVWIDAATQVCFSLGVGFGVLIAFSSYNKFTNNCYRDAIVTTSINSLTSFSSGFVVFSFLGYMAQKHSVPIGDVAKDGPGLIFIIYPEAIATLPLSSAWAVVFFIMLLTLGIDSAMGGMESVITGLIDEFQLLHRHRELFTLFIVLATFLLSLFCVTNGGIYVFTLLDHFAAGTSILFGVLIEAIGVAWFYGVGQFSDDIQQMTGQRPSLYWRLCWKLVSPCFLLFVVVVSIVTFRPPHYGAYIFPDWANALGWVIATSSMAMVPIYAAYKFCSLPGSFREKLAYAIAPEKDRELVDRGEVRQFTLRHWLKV"}
{"SMILES": "CCCCCn1cc(C(=O)c2cccc3ccccc23)c2ccccc21", "target or system": "Cannabinoid receptor 1 (CNR1, Homo sapiens, UniProt P21554)", "test": "GαoA activation, agonist, BRET", "how to read": "reference: reference agonist", "quantity": "Emax", "result": "77.3 ± 6.8%"}
{"SMILES": "CC(C)CC(C(=O)N1CC2(CC1C#N)C(=O)Nc1ccccc12)N(C)C(=O)c1cc2c(F)cc(F)c(F)c2[nH]1 (stereo not shown)", "target or system": "Replicase polyprotein 1ab, main protease (rep, Porcine epidemic diarrhea virus, UniProt P0C6Y4)", "test": "protease activity, inhibitor", "conditions": "0.1 µM", "quantity": "remaining activity", "result": "90.2%"}
{"SMILES": "COc1ccccc1C(C[N+](=O)[O-])c1c(-c2ccccc2)[nH]c2ccccc12 (stereo not shown)", "target or system": "Cannabinoid receptor 1, with Gi1 (CNR1, Homo sapiens, UniProt P21554)", "test": "Gi1 dissociation, agonist, BRET", "quantity": "Emax", "result": "74.6 ± 4.61%"}
{"SMILES": "CS(C)(=O)=Nc1ccc(-c2ccc(-c3nc4cc(O[C@@H]5CO[C@H]6[C@@H]5OC[C@H]6O)[nH]c4cc3F)cc2)cc1", "target or system": "Phosphatidylinositol 4,5-bisphosphate 3-kinase catalytic subunit alpha isoform, with p85 alpha (PIK3CA, Homo sapiens, UniProt P42336, E542K)", "test": "kinase activity", "conditions": "10 µM", "quantity": "inhibition", "result": "-2%"}
{"SMILES": "COc1ccccc1-c1n[nH]c2nc(NC3CCN(C(=O)Cc4ccc(F)cc4F)CC3)ncc12", "test": "bead binding, competition bead pull-down, refers to: LMJF.28.2750", "system": "Leishmania donovani axenic amastigote extract", "conditions": "10 µM", "how to read": "reference: vehicle", "quantity": "relative abundance", "result": 1.11}
{"SMILES": "Cc1sc2c(c1C)C(c1ccc(Cl)cc1)=NC(CC(=O)OC(C)(C)C)c1nnc(C)n1-2 (stereo not shown)", "target or system": "Kappa-type opioid receptor (Oprk1, Rattus norvegicus, UniProt P34975)", "test": "radioligand binding", "conditions": "1 µM", "quantity": "inhibition", "result": "3%"}
{"SMILES": "Cc1cc(C(=O)Nc2nc3cccc(C)c3n2[C@H]2CCCCN(C(=O)/C=C/CN(C)C)C2)ccn1", "target or system": "Trypanosoma brucei", "system": "STIB795, mouse acute HAT model", "conditions": "oral, 7.5 mg/kg once daily for 4 days, day 10", "how to read": "reference: mice", "quantity": "survival", "result": "33.3%"}
{"SMILES": "CCn1cc(C(=O)NC2CCOCC2OCCO)c(=O)c2ccc(C)nc21 (stereo not shown)", "target or system": "3-oxoacyl-[acyl-carrier-protein] synthase 1 (kasA, Mycobacterium tuberculosis, UniProt P9WQD9)", "test": "thermal stabilization, nanoDSF", "conditions": "100 µM", "quantity": "ΔTm", "result": "-0.57 °C"}
{"SMILES": "CC(C)[C@H]1NC(=O)C[C@H]2/C=C/CCSSC[C@@H](NC1=O)C(=O)N[C@H](Cc1cccc3ccccc13)C(=O)NCC(=O)O2", "target or system": "5'-AMP-activated protein kinase catalytic subunit alpha-1, with beta1, gamma1 (PRKAA1, Homo sapiens, UniProt Q13131)", "conditions": "10 µM", "quantity": "inhibition", "result": "-5.9%"}
{"SMILES": "CC(C)(C)C(=O)OCOP(=O)(OCOC(=O)C(C)(C)C)C1CCCN(O)C1=O (stereo not shown)", "target or system": "NCI/ADR-RES", "quantity": "Log10LC50", "result": "> -4 log M"}
{"SMILES": "CNC(=O)N1CCN(c2ccc(NC(=O)Cn3c(C)c(C(=O)c4ccc(OC)cc4)c4ccccc43)cc2C(F)(F)F)CC1", "target or system": "Discoidin domain-containing receptor 2 (DDR2, Homo sapiens, UniProt Q16832)", "test": "competition binding", "how to read": "reference: DDR2 over DDR1", "quantity": "selectivity ratio", "result": "> 65"}
{"SMILES": "CN(C)[C@H]1C[C@@]23CC[C@@]4(O2)C(=CC[C@]2(C)[C@@H](c5ccc6ccncc6c5)CC[C@H]24)C=C3[C@@H](O)[C@@H]1O", "target or system": "MAP/microtubule affinity-regulating kinase 4 (MARK4, Homo sapiens, UniProt Q96L34)", "test": "ATP probe labelling, inhibitor, KiNativ profiling", "conditions": "1 µM", "quantity": "inhibition", "result": "-3.9%"}
{"SMILES": "O=C1NC2(CC2)COc2ncc(F)cc2[C@H]2COCCN2c2ccn3ncc1c3n2", "system": "Sprague-Dawley rat, male, serum", "conditions": "oral, 2.5 mg/kg/day, end of recovery, 4-week subacute toxicity", "quantity": "serum LDH activity", "result": "846 ± 232 U/L"}
{"SMILES": "O=[N+]([O-])CC(c1ccco1)c1c(-c2ccccc2)[nH]c2ccccc12 (stereo not shown)", "target or system": "Cannabinoid receptor 1 (CNR1, Homo sapiens, UniProt P21554, I245A)", "test": "Gαi1-γ2 dissociation, BRET", "quantity": "Emax", "result": "49.6 ± 6.52%"}
{"SMILES": "CC[C@H](C)[C@H](NC(=O)[C@H](CO)NC(=O)[C@H](CC(N)=O)NC(=O)[C@H](CC(C)C)NC(=O)[C@H](Cc1ccc(O)cc1)NC(=O)[C@H](CCCCN)NC(=O)[C@H](CCCCN)NC(=O)[C@@H](NC(=O)[C@H](C)NC(=O)[C@H](CCSC)NC(=O)[C@H](CCC(N)=O)NC(=O)[C@H](CCCCN)NC(=O)[C@H](CCCNC(=N)N)NC(=O)[C@H](CC(C)C)NC(=O)[C@H](CCCNC(=N)N)NC(=O)[C@@H](NC(=O)[C@H](Cc1ccc(O)cc1)NC(=O)[C@H](CC(N)=O)NC(=O)[C@H](CC(=O)O)NC(=O)[C@@H](NC(=O)[C@H](Cc1ccccc1)NC(=O)[C@@H](NC(=O)[C@H](C)NC(=O)[C@H](CC(=O)O)NC(=O)[C@H](CO)NC(=O)[C@@H](N)Cc1c[nH]cn1)C(C)C)[C@@H](C)O)[C@@H](C)O)C(C)C)C(=O)N[C@@H](CC(C)C)C(=O)N[C@@H](CC(N)=O)C(N)=O", "target or system": "Pituitary adenylate cyclase-activating polypeptide type I receptor (ADCYAP1R1, Homo sapiens, UniProt P41586, del89-109)", "test": "cAMP production, agonist", "system": "COS-7", "conditions": "37 °C, AUC over 20 min", "quantity": "Emax", "result": "74 ± 3%"}
{"SMILES": "Nc1ccc(/C=C/C(=O)N2CCc3c(oc4c(-c5ccc(F)cc5)cc(-c5ccc(C(=O)N6CCC(F)(F)CC6)cn5)cc34)C2)cn1", "target or system": "Phosphatidylinositol 4,5-bisphosphate 3-kinase catalytic subunit alpha isoform (PIK3CA, Homo sapiens, UniProt P42336)", "test": "binding, competition with immobilised ligand", "conditions": "1 µM", "quantity": "remaining binding", "result": "100%"}
{"SMILES": "CC(C)C[C@H](NC(=O)[C@H](C)NC(=O)[C@H](CCC(=O)O)NC(=O)[C@@H](N)Cc1c[nH]cn1)C(=O)N[C@@H](COP(=O)(O)O)C(=O)N[C@@H](CC(=O)O)C(=O)N1CCC[C@H]1C(=O)N[C@@H](CC(=O)O)C(=O)O", "target or system": "embR", "test": "biolayer interferometry", "conditions": "25 °C", "quantity": "koff", "result": "0.001035 ± 9e-06 s⁻¹"}
{"SMILES": "CCCCCn1cc(C(=O)c2cccc3c2CC(C)(C)C3)c2ccccc21", "target or system": "Cannabinoid receptor 1 (CNR1, Homo sapiens, UniProt P21554, H178A)", "test": "Gαi1 engagement, agonist, BRET", "how to read": "reference: reference agonist at wild-type CB1", "quantity": "Emax", "result": "81.9 ± 11.8%"}
{"SMILES": "Cc1ccc2c(C(C[N+](=O)[O-])c3cccs3)c(-c3ccccc3)[nH]c2c1 (stereo not shown)", "target or system": "Cannabinoid receptor 1 (CNR1, Homo sapiens, UniProt P21554, I169A)", "test": "Gαi1-γ2 dissociation, BRET", "quantity": "Emax", "result": "95.6 ± 4.41%"}
{"SMILES": "CC(C)C[C@H](NC(=O)[C@@H](N)CO)C(=O)N[C@@H](CCC(=O)O)C(=O)N[C@H](C(=O)N[C@H](C(=O)N[C@@H](CCC(=O)O)C(=O)N[C@@H](C)C(=O)N[C@@H](CC(=O)O)C(=O)O)[C@@H](C)OP(=O)(O)O)C(C)C", "target or system": "embR", "test": "binding", "quantity": "kon", "result": "200 ± 40 M⁻¹ s⁻¹"}
{"SMILES": "C=C(C)C1C2OC(=O)C1C1(O)CC3OC34C(=O)OC2C14C (stereo not shown)", "target or system": "Rdl (Drosophila melanogaster, UniProt P25123)", "test": "ion current, inhibitor, two-electrode voltage clamp", "conditions": "from τoff, added: GABA at EC50", "quantity": "koff", "result": "0.11 s⁻¹"}
{"SMILES": "CCCCCn1cc(C(=O)c2ccc3ccccc3c2)c2ccccc21", "target or system": "Cannabinoid receptor 1 (CNR1, Homo sapiens, UniProt P21554, F174A)", "test": "Gαi1 engagement, agonist, BRET", "how to read": "reference: reference agonist at wild-type CB1", "quantity": "Emax", "result": "89.2 ± 3.2%"}
{"SMILES": "O=C1NC(=O)c2c1c1cc(F)c[n+]3c1c1c2c2cc(O)ccc2[n]1[Ru-4]312([N]=C=S)[S+]3CC[S+]1CC[S+]2CC3 (stereo not shown)", "target or system": "Serine/threonine-protein kinase WNK2 (WNK2, Homo sapiens, UniProt Q9Y3S1)", "test": "enzyme activity", "conditions": "100 nM, human enzyme, added: 10 µM ATP", "how to read": "reference: untreated", "quantity": "remaining activity", "result": "76%"}
{"SMILES": "CCCCCn1cc(C(=O)c2ccc3c(c2)CC(C)(C)C3)c2ccccc21", "target or system": "Cannabinoid receptor 1 (CNR1, Homo sapiens, UniProt P21554, F177A)", "test": "Gαi1 engagement, agonist, BRET", "how to read": "reference: reference agonist at wild-type CB1", "quantity": "Emax", "result": "11.3 ± 11.7%"}
{"SMILES": "CCOCC1C(c2ccc(Cl)c(Cl)c2)CC2CCC1N2C (stereo not shown)", "target or system": "Sodium-dependent dopamine transporter (SLC6A3, Homo sapiens, UniProt Q01959)", "test": "dopamine uptake", "conditions": "0.002 µM, 0.03333 h, added: [3H]dopamine", "how to read": "reference: no inhibitor", "quantity": "remaining activity", "result": "3.7%"}
{"note": "For quick reference, copied from above:"}
{"SMILES": "CC[C@H](C)[C@H](NC(=O)[C@H](CO)NC(=O)[C@H](CC(N)=O)NC(=O)[C@H](CC(C)C)NC(=O)[C@H](Cc1ccc(O)cc1)NC(=O)[C@H](CCCCN)NC(=O)[C@H](CCCCN)NC(=O)[C@@H](NC(=O)[C@H](C)NC(=O)[C@H](CCSC)NC(=O)[C@H](CCC(N)=O)NC(=O)[C@H](CCCCN)NC(=O)[C@H](CCCNC(=N)N)NC(=O)[C@H](CC(C)C)NC(=O)[C@H](CCCNC(=N)N)NC(=O)[C@@H](NC(=O)[C@H](Cc1ccc(O)cc1)NC(=O)[C@H](CC(N)=O)NC(=O)[C@H](CC(=O)O)NC(=O)[C@@H](NC(=O)[C@H](Cc1ccccc1)NC(=O)[C@@H](NC(=O)[C@H](C)NC(=O)[C@H](CC(=O)O)NC(=O)[C@H](CO)NC(=O)[C@@H](N)Cc1c[nH]cn1)C(C)C)[C@@H](C)O)[C@@H](C)O)C(C)C)C(=O)N[C@@H](CC(C)C)C(=O)N[C@@H](CC(N)=O)C(N)=O", "target or system": "Pituitary adenylate cyclase-activating polypeptide type I receptor (ADCYAP1R1, Homo sapiens, UniProt P41586, del89-109)", "test": "cAMP production, agonist", "system": "COS-7", "conditions": "37 °C, AUC over 20 min", "quantity": "Emax", "result": "74 ± 3%"}
{"SMILES": "O=C1NC(=O)c2c1c1cc(F)c[n+]3c1c1c2c2cc(O)ccc2[n]1[Ru-4]312([N]=C=S)[S+]3CC[S+]1CC[S+]2CC3 (stereo not shown)", "target or system": "Serine/threonine-protein kinase WNK2 (WNK2, Homo sapiens, UniProt Q9Y3S1)", "test": "enzyme activity", "conditions": "100 nM, human enzyme, added: 10 µM ATP", "how to read": "reference: untreated", "quantity": "remaining activity", "result": "76%"}
{"SMILES": "COc1ccccc1C(C[N+](=O)[O-])c1c(-c2ccccc2)[nH]c2ccccc12 (stereo not shown)", "target or system": "Cannabinoid receptor 1, with Gi1 (CNR1, Homo sapiens, UniProt P21554)", "test": "Gi1 dissociation, agonist, BRET", "quantity": "Emax", "result": "74.6 ± 4.61%"}
{"SMILES": "CCn1cc(C(=O)NC2CCOCC2OCCO)c(=O)c2ccc(C)nc21 (stereo not shown)", "target or system": "3-oxoacyl-[acyl-carrier-protein] synthase 1 (kasA, Mycobacterium tuberculosis, UniProt P9WQD9)", "test": "thermal stabilization, nanoDSF", "conditions": "100 µM", "quantity": "ΔTm", "result": "-0.57 °C"}
